Measured values of several laboratories.
Each numbered part is a random draw from the data of one study; scales do not carry over between parts. Positions count from the first letter of the parent shown.
UniProt Q84WU6, sequence (whole entry, looked up): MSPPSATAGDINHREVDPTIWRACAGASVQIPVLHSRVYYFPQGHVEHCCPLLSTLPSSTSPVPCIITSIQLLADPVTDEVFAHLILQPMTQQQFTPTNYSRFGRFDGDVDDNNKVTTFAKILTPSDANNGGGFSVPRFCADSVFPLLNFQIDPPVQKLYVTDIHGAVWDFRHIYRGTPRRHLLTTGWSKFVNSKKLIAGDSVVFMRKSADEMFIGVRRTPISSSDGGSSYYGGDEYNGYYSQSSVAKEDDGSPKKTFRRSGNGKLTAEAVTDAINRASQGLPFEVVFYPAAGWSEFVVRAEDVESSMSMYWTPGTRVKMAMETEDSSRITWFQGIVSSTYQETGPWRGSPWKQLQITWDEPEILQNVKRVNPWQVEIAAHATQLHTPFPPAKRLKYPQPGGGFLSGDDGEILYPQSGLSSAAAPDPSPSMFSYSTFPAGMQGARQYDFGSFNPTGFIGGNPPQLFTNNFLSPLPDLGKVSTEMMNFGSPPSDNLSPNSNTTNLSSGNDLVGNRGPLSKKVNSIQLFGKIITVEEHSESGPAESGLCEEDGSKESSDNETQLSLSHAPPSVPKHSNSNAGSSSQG
UniProt Q9ZTX9, sequence (whole entry, looked up): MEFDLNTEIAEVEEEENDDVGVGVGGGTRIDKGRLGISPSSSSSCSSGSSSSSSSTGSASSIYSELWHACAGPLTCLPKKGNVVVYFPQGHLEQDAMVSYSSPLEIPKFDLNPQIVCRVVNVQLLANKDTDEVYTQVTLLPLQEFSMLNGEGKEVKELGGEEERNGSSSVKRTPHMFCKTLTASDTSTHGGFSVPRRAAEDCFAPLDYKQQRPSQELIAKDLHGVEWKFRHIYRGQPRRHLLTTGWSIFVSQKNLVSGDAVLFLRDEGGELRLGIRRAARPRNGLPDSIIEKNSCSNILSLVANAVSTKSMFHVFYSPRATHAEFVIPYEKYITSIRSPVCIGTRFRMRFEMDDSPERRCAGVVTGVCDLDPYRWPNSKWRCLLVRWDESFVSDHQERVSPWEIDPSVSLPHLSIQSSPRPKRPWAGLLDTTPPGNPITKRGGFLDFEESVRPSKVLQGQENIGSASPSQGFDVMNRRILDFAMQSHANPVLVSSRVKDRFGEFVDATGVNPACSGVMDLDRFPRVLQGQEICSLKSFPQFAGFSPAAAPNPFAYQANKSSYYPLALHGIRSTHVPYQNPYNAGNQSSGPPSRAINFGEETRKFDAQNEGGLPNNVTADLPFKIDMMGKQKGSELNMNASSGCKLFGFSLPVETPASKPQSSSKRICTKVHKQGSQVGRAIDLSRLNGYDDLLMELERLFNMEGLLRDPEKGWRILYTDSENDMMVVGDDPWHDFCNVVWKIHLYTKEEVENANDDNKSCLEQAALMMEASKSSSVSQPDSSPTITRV
UniProt Q9FGV1, sequence (whole entry, looked up): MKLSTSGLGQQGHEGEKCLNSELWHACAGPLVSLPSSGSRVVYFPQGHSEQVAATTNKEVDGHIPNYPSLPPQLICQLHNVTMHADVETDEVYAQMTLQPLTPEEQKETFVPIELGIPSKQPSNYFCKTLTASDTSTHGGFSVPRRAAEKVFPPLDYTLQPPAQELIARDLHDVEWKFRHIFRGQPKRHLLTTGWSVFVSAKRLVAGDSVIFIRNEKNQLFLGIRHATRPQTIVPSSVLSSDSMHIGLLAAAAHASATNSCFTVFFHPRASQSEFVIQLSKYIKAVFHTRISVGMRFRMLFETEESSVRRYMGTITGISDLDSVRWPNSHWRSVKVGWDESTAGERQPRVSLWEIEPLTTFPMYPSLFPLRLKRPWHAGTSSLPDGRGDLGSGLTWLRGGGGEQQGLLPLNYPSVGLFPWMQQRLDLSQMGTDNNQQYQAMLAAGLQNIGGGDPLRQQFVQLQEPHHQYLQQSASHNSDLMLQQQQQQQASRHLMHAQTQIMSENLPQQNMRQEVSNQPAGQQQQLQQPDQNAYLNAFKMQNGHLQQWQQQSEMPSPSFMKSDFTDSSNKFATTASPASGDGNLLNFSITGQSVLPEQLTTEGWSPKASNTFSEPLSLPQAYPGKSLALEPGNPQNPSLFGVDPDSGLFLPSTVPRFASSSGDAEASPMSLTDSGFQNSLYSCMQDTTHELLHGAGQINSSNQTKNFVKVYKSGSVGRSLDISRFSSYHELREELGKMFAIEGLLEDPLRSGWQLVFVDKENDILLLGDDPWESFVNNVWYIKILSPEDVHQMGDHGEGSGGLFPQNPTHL
UniProt O24410, sequence (whole entry, looked up): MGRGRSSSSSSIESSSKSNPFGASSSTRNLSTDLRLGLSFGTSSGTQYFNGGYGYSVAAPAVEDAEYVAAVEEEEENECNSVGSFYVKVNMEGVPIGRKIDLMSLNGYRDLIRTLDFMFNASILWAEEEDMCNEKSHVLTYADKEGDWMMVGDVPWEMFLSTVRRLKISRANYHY
UniProt Q9C5X0, sequence (whole entry, looked up): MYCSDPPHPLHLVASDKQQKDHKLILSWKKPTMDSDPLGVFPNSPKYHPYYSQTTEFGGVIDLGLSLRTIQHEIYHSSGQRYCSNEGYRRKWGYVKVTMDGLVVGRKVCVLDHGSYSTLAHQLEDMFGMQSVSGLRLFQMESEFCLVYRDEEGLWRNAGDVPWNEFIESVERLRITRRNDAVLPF
UniProt Q8H174, sequence (whole entry, looked up): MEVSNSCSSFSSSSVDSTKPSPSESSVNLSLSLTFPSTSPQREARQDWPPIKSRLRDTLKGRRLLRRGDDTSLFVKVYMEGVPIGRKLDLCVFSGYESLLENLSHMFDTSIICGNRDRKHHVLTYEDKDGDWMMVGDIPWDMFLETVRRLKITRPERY

Sample 1
Target: Interferon regulatory factor 5, full length, phosphomimetic (IRF5, Homo sapiens, UniProt Q13568-2, residues 1-514, S451D/S453D/S456D/S462D)
Method: protein-binding microarray
Molecule type: double-stranded DNA, one strand shown
Sample: in vitro
Concentration: 940 nM top
Notes: 60-bp whole probe
Added: salmon DNA 0.4 mg/ml
Baseline: random background probes
Direction: higher = stronger binding
Endpoint: fitted relative affinity
All sequences stand within: GCCTAGCAC … GTCTTGATTCGCTTGACGCTGCTG
GACGGTCTCGGGATCGGGACGTGCTAG: 1.33 z-score
TGAGTAATTACATAATTACGGTGCTAG: -0.21 z-score
TTGCATCGTAAGCAAAAATGGTGCTAG: -0.345 z-score
GACGATTTCGGGTACCGAGACGTGCTA: 0.716 z-score
GACGGTTTCTTTATCCTGACGTGCTAG: 2.45 z-score
GAGGGACTGGGACTGGGGACGTGCTAG: -0.43 z-score
TTTCTTTTCCATTTTGTGTTGTGCTAG: 4.1 z-score
TTAGATAACGGGTTTCGATTAGTGCTA: 5.22 z-score
TCATATTTACCTCTCACACTGTGCTAG: 1.02 z-score
TGAGGACTGGACTATCGGTTAGTGCTA: -0.218 z-score
GACGGTCTCCGACTGGGGACGTGCTAG: -0.737 z-score
TTCGGTTTCGGTCTCGGTTAGTGCTAG: 14.2 z-score
TCACCTTTGAAAGTTGTTACTGTGCTA: 0.611 z-score
TCACTCATACATCTGGGACTGTGCTAG: 0.374 z-score
GACGACTTCAGACTGGAGACGTGCTAG: -0.303 z-score
TTCGGACTGCTTATCCTTTAGTGCTAG: -0.134 z-score
CTCGCTATGTTGTCCAGGCTGGTGCTA: -0.359 z-score
GACGATTTCCTTCTCCTGACGTGCTAG: 0.748 z-score
TCATTTTTCTAAGTAAAACTGTGCTAG: 0.0642 z-score
TTAGGACTGGGTATCGATTAGTGCTAG: 3.28 z-score
GACGGTTTCCTACTGCTGATGTGCTAG: 0.901 z-score
TTAGGTCTCATTCTCCTTTAGTGCTAG: 1.83 z-score
TTAGGTTTCCTTTGCCTTTAGTGCTAG: 2.05 z-score
GACCGACTGGGTCTCGGGACGTGCTAG: 0.085 z-score
GACGGTTTCGGACTGGGTACGTGCTAG: 6.32 z-score

Sample 2
Molecule: B1 (IAA18)
Method: two-hybrid
Direction: higher = firmer interaction
Endpoint: positive tests
B1: IAA18 (Arabidopsis thaliana, UniProt O24408); chain MEGYSRNGEISPKLLDLMIPQERRNWFHDEKNSVFKTEEKKLELKLGPPGEEDDDESMIRHMKKEPKDKSILSLAGKYFSPSSTKTTSHKRTAPGPVVGWPPVRSFRKNLASGSSSKLGNDSTTSNGVTLKNQKCDAAAKTTEPKRQGGMFVKINMYGVPIGRKVDLSAHNSYEQLSFTVDKLFRGLLAAQRDFPSSIEDEKPITGLLDGNGEYTLTYEDNEGDKMLVGDVPWQMFVSSVKRLRVIKTSEISSALTYGNGKQEKMRR
ARF4 660-788 (Arabidopsis thaliana, UniProt Q9ZTX9); baseline: out of 4 tests: 0
IAA20 (Arabidopsis thaliana, UniProt O24410); weak activation fusion; baseline: out of 4 tests: 2
ARF17 (Arabidopsis thaliana, UniProt Q84WU6); weak activation fusion; baseline: out of 3 tests: 0
IAA34 (Arabidopsis thaliana, UniProt Q9C5X0); baseline: out of 4 tests: 4
IAA31 (Arabidopsis thaliana, UniProt Q8H174); baseline: out of 4 tests: 2
ARF8 699-811 (Arabidopsis thaliana, UniProt Q9FGV1); baseline: out of 3 tests: 3

Sample 3
Target: CREB3L2, bZIP domain (human)
Method: DHFR protein complementation
Sample: yeast
Notes: single substitutions, most at no-binding floor
Baseline: wild-type JUN-FOS pair
Direction: higher = stronger binding
Endpoint: binding fitness
Starting sequence: JUN, bZIP domain (human); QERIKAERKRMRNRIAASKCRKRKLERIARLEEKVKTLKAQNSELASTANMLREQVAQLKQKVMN; partner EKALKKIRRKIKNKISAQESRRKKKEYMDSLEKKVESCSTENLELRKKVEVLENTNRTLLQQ
L45D: -1.56 natural log
N42D: -1.55 natural log
E33S: -1.54 natural log
R53G: -1.53 natural log
Q55V: -1.49 natural log
I28T: -1.5 natural log
E44K: -1.48 natural log
K36G: -1.46 natural log
E44W: -1.5 natural log
N42Q: -1.44 natural log
M51R: -1.42 natural log
I28P: -1.55 natural log
A40C: -1.51 natural log
K39L: -1.39 natural log
V35L: -1.34 natural log
S43A: -1.41 natural log
E32S: -1.54 natural log
K36I: -1.59 natural log
R30H: -1.4 natural log
A40M: -1.61 natural log
I28K: -1.21 natural log
R53S: -1.45 natural log
E54D: -1.38 natural log
K34Q: -1.39 natural log
K39Q: -1.36 natural log

Sample 4
Target: ABI1, truncated, D143A, DHFR fusion (Arabidopsis thaliana)
Method: DHFR PCA, deep sequencing
Sample: yeast
Notes: methotrexate growth selection, single substitutions
Added: (+)-ABA 17 µM
Baseline: wild-type fitted maximum
Direction: higher = stronger binding
Endpoint: relative binding score
Starting sequence: PYL1, truncated, DHFR fusion (Arabidopsis thaliana); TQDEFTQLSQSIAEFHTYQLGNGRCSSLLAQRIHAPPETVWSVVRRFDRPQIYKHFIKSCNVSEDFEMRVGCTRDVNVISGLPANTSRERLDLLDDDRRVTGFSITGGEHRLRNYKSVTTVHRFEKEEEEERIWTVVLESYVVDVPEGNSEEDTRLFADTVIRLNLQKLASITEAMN
R69Q: 85.8%
D3H: 74.7%
R24A: 68%
G108A: -0.245%
I33A: 3.27%
D96N: 52.7%
Q51M: 47.4%
S9W: 67.3%
E64H: 84.8%
S140L: -1.79%
N85I: 78.5%
W134A: 82.5%
I79H: 87.5%
L20D: 85.2%
V137Q: -4.92%
E127W: 75.6%
S140P: 3.8%

Sample 5
Target: CCNB2, cyclin fold, Cln2 fusion (human)
Method: yeast growth competition, sequencing
Sample: yeast
Notes: weak parent motif
Baseline: not given
Direction: higher = stronger binding
Endpoint: normalised enrichment score
Starting sequence: CENPC docking peptide (human); VKTKKRLNFDDKV; partner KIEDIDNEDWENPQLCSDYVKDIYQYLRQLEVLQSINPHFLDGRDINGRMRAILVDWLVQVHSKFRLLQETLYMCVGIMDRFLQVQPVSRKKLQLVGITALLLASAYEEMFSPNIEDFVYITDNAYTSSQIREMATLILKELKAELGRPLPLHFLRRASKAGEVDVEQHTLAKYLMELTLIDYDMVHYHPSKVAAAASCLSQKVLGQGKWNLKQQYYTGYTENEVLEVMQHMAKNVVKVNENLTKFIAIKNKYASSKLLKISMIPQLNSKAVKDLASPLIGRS
VKTKKRLNLDDKV [F9L]: 0.0237
VKTKKRLNFDDKA [V13A]: 0.153
VKTKKRLNFDDAV [K12A]: 0.568
VKTKARANFDDKV [K5A L7A]: 0.343
VKTKKRANFDDKV [L7A]: 0.412
VKTAKRLNFDDKV [K4A]: 0.439
VKTKRRLNFDDKV [K5R]: 1.29
VKTKKRLNADDKV [F9A]: -0.0502
VKTKARLNFDDKV [K5A]: 0.56
VKTKKRLAFDDKV [N8A]: 0.664

Sample 6
Target: Histone acetyltransferase KAT6A, both winged helices, GST fusion (KAT6A, Homo sapiens, UniProt Q92794, residues 1-181)
Method: protein binding microarray
Molecule type: double-stranded DNA, one strand shown
Sample: in vitro
Concentration: not given
Notes: 8-mer, flanks averaged, mean of 2 arrays, mostly near background
Baseline: not given
Direction: higher = stronger binding
Endpoint: E-score
Construct (chain): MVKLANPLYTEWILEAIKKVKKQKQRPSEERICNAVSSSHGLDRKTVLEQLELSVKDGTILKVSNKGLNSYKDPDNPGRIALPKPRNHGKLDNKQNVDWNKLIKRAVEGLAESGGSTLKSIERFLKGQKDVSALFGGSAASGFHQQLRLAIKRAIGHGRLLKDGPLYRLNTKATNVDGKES
GCGCAACA: 0.205
CTAGACGA: -0.0832
CTTAGCTC: -0.109
CTGCTGGC: -0.0793
AATGACTA: -0.189
CAGGTTTA: -0.0558
ACGGAAGT: 0.235
ATATTAGC: 0.0528
CCTTTACC: 0.00789
AGTTGAGC: -0.18
AGCGGATC: 0.18
GGCAGGCA: -0.12
CAGCCATA: -0.0549
AAAACAGG: -0.228
TACCCGTA: 0.244
AAATGGAC: 0.00829
CGACTACC: -0.0289
GGGGTGAA: -0.133

Repeated from above (sample 3):
A40M: -1.61 natural log
R30H: -1.4 natural log
I28K: -1.21 natural log
N42D: -1.55 natural log
E54D: -1.38 natural log
Q55V: -1.49 natural log
K36I: -1.59 natural log
I28T: -1.5 natural log
R53S: -1.45 natural log
E44W: -1.5 natural log
K34Q: -1.39 natural log
M51R: -1.42 natural log
